Published values pooled from the literature.
Lines come from different studies, so protocols differ. ± gives the spread as reported.

SMILES | tested on | assay | setting | quantity | value
COCCOC(=O)C1=C(C)NC(C)=C(C(=O)OC(C)C)C1c1cccc([N+](=O)[O-])c1 (stereo not shown) | Nedd8-cullin1 interaction | neddylation, AlphaScreen | 100 µM | inhibition | -30.7%
Cc1ccc(-c2nc3ccccc3s2)cc1NC(=O)c1cc([N+](=O)[O-])c(NCCNC(=O)OC(C)(C)C)cc1Cl | BJ fibroblasts | cell growth, CellTiter-Glo | 72 h | EC50 | > 30 µM
Cc1cc(Nc2ncc(Cl)c(Nc3ccccc3S(=O)(=O)C(C)C)n2)c(OC(C)C)cc1C1CCNCC1 | iPSC-derived maturing neurons | CellTiter-Blue metabolic | 24 h, 4-week maturation | EC50 | > 10 µM
CCn1cc(-c2cc(Cn3ccoc3=N)cc3c2CCN([C@@H](C)c2cc(OC)ccn2)C3=O)c(C(F)(F)F)n1 | HEC-1B | cell growth, inhibitor | 120 h | EC50 | 0.0617 µM
C[C@]12CCCN1CC1=NNC(=O)c3cc(F)cc4[nH]c2c1c34 | RKO colorectal cancer cells | cell viability | concentration not given, together with: with temozolomide | EC50 | > 3 µM
CC(C)c1ccc(C2C(C#N)=C3N=C(N)c4ccccc4N3C3=C2C(=O)CCC3)cc1 (stereo not shown) | HMC3 | phagocytosis, high-content imaging | geometric mean, together with: pHrodo-myelin uptake | EC50 | > 60 µM
COc1cnc2cccc(N3CCc4c(cc(Cn5ccnc5C)cc4-c4cn(C)nc4C(F)(F)F)C3=O)c2c1 | NCI-H358 | cell growth, inhibitor | 120 h | EC50 | 7.1 µM
Cc1ccc(-c2nc3ccccc3s2)cc1NC(=O)c1cc([N+](=O)[O-])c(NC2CCN(C)CC2)cc1Cl | BJ fibroblasts | cell growth, CellTiter-Glo | 72 h | EC50 | > 9.17 µM
[Cl-].[Cl-].[Os+2].c1cnc2c(c1)ccc1cccnc12.c1cnc2c(c1)ccc1cccnc12.c1cnc2c(c1)ccc1cccnc12 | SK-MEL-28 | cell viability, resazurin | dark, 1% O2 hypoxia | EC50 | 168 ± 2 µM
Fc1ccc(Oc2ccc(Nc3ccc4ncc(OCC5CCNCC5)nc4c3)cc2)cc1 | Jurkat | cell growth, XTT | 7 days | EC50 | 0.77 ± 0.1 µM
COc1cccc2c1C(=O)c1c(O)c3c(c(O)c1C2=O)C[C@@](O)(C(=O)CO)C[C@@H]3O[C@H]1C[C@H](N)[C@H](O)[C@H](C)O1 | A-375 | cell viability, MTT | 72 h | EC50 | 0.007 ± 0.0026 µM
NC[C@H](OCC(=O)N1CCC[C@H](C(=O)NCc2nc(-c3ccc(C(F)(F)F)cc3)cs2)C1)c1ccccc1 | Jurkat | cytotoxicity | – | EC50 | ~10 µM
CCn1cc(-c2cc(Cn3ccnc3)cc3c2CCN([C@H](c2cc(OC)ccn2)C2CC2)C3=O)c(C(F)(F)F)n1 | Hs 294T | cell growth, inhibitor | 120 h | EC50 | 0.426 µM
CCOC(=O)C1=C(C)NC(C)=C(C(=O)OC)C1c1cccc(Cl)c1Cl (stereo not shown) | Nedd8-cullin1 interaction | neddylation, AlphaScreen | 100 µM | inhibition | 7.1%
CCn1c(=O)/c(=C2\Sc3cc(Cl)ccc3N2C)s/c1=C\c1scc[n+]1Cc1ccccc1.[Cl-] | MYBPC3 iPSC-cardiomyocytes | refers to: MYH | 24 h | EC50 | inactive
O=C(NN=Cc1ccc(Cl)cc1)C1CC(=O)N(c2ccc(F)cc2F)C1 (stereo not shown) | A-375 | cell viability, MTT | 72 h | EC50 | 36.6 ± 11 µM

Some of these lines once more:
SMILES | tested on | assay | setting | quantity | value
Cc1cc(Nc2ncc(Cl)c(Nc3ccccc3S(=O)(=O)C(C)C)n2)c(OC(C)C)cc1C1CCNCC1 | iPSC-derived maturing neurons | CellTiter-Blue metabolic | 24 h, 4-week maturation | EC50 | > 10 µM
CC(C)c1ccc(C2C(C#N)=C3N=C(N)c4ccccc4N3C3=C2C(=O)CCC3)cc1 (stereo not shown) | HMC3 | phagocytosis, high-content imaging | geometric mean, together with: pHrodo-myelin uptake | EC50 | > 60 µM
NC[C@H](OCC(=O)N1CCC[C@H](C(=O)NCc2nc(-c3ccc(C(F)(F)F)cc3)cs2)C1)c1ccccc1 | Jurkat | cytotoxicity | – | EC50 | ~10 µM
